Measurements from different studies.
Each line is one published result; not all experiments were run side by side. “And” joins repeats or separate records; there may be more than shown. ± gives the spread as reported.

Compound	tested on	test	system	conditions	how to read	endpoint	result
Cn1cc([C@H]2C[C@H]3CSC(N)=N[C@@]3(c3ccc(F)cc3F)CO2)cn1			male 129/SVE mouse, plasma	subcutaneous, 50 mg/kg, 3 h		plasma concentration	8920 nM
CC(C)C[C@H](NC(=O)C[C@H](O)[C@H](CC(C)C)NC(=O)[C@H](Cc1c[nH]cn1)NC(=O)CNC(=O)[C@@H](NC(=O)[C@H](C)NC(=O)[C@H](Cc1c[nH]c2ccccc12)NC(=O)[C@H](CCC(N)=O)NC(=O)[C@@H](Cc1ccccc1)NC(=O)COCCOCCNC(=O)CCC(C(=O)O)N1CCN(CC(=O)O)CCN(CC(=O)O)CCN(CC(=O)O)CC1)C(C)C)C(N)=O (stereo partly shown) [lutetium-177 labelled]			female BALB/c nu/nu mice, lung	intravenous, 50 pmol, 1 h		tissue uptake	0.4 ± 0.1 %ID/g
COc1cccc(-c2n[nH]c(SCc3ccccn3)n2)c1OC			Sprague-Dawley rats, both sexes	oral dietary, 100 mg/kg/day, day 7, 24 h		plasma concentration	1810 ng/mL
CC(C)CCC[C@@H](C)[C@H]1CC[C@H]2[C@@H]3C(O)CC4=CC(=O)CC[C@]4(C)[C@H]3CC[C@]12C (stereo partly shown)			healthy human volunteers, plasma	dose not given, 0 h, baseline phase, no drug		plasma concentration	64.6 ± 23.2 nM
CCN1CCN(Cc2ccc(NC(=O)c3ccc(C)c(NC(=O)c4cncc(-c5cccs5)c4)c3)cc2C(F)(F)F)CC1			C57BL/6 mouse, plasma	intraperitoneal, 20 mg/kg, 24 h, single dose		plasma concentration	not detected
C[C@H](CCC(=O)O)[C@H]1CC[C@H]2[C@@H]3CC[C@@H]4C[C@H](OS(=O)(=O)O)CC[C@]4(C)[C@H]3CC[C@]12C			healthy human volunteers, plasma	dose not given, 0 h, baseline phase, no drug		plasma concentration	305 ± 21 nM
CC(=O)N(C)C1CCN(c2cc(F)cc(NC(=O)c3cc4c(F)ccc(C)c4[nH]3)c2)C1 (stereo not shown)			CD1 mouse, plasma	oral, 50 mg/kg, 2 h		plasma concentration	32.1 ng/mL
C[C@H](CCC(=O)NCC(=O)O)[C@H]1CC[C@H]2[C@@H]3[C@H](O)C[C@@H]4C[C@H](O)CC[C@]4(C)[C@H]3CC[C@]12C			healthy human volunteers, plasma	dose not given, 0 h, baseline phase, no drug		plasma concentration	404 ± 152 nM
CCOCc1nc(O)c(-c2nnc(Cc3ccc(Cl)cn3)o2)c(O)c1-c1c(OC)cccc1OC			anaesthetized rats, plasma	intravenous infusion, 1 µg/kg/min for 15 min, 20 min washout		plasma concentration	115 ± 58 nM
CCn1c(C(=O)N(C2CC2)C2CC2)cc2c3c(ncn3C)c(Nc3cc(C)n(C)n3)nc21			cancer patients	oral, 200 mg single dose, day 1, 8.0 h		plasma concentration	932 ng/mL
Cc1c(-c2ccc(N3CCc4cccc(C(=O)Nc5nc6ccccc6s5)c4C3)nc2C(=O)O)cnn1CC12CC3(C)CC(C)(C1)CC(OCCNCC[C@H](O)CO)(C3)C2			anaesthetized male beagle dog	iv infusion, 0.01 mg/kg/min, 135 min		plasma concentration	< 2 ng/mL
Cc1c(C(=O)O)ccc2c3n(nc12)[C@@H]1[C@H](C3)N(CC2CC2)[C@@]2(C(=O)Nc3cc(Cl)ccc32)[C@H]1c1cccc(Cl)c1F			female BALB/c nude mice, SJSA-1 xenograft, plasma	oral, 2 mg/kg once daily, 2 h, individual animals		plasma concentration	2420 nM
CN1CCN(c2ccc(OC(F)(F)F)c(Nc3ncc4c(n3)-c3c(c(C(N)=O)nn3CCO)CC4)c2)CC1		LC-MS/MS	human, plasma	oral, 12 mg/m2, 2 h post-dose		plasma concentration	61.2 ng/mL and 89.5 ng/mL
COc1cc2c(cc1OC)CN(CCc1ccc(NC(=O)c3cc(OC)c(OC)cc3NC(=O)c3cnc4ccccc4c3)cc1)CC2			human, plasma	intravenous infusion, 5.9 mg/kg, 123 min		plasma concentration	3380 nM
O=C(O)CCCCCCCCCCC(=O)O			healthy human volunteers, plasma	dose not given, 0 h, baseline phase, no drug		plasma concentration	65.4 ± 8.8 nM
Cn1cc(-c2ccc(-c3cncc(Cl)c3N3CCC4(CCNC4=O)CC3)cc2)cn1	COLO 205	gene expression, microarray, item: HSPA1B mRNA		concentration not given, 6 h	reference: untreated cells	log2 fold change	4.31

Excerpt of the above:
Compound	tested on	test	system	conditions	how to read	endpoint	result
C[C@H](CCC(=O)O)[C@H]1CC[C@H]2[C@@H]3CC[C@@H]4C[C@H](OS(=O)(=O)O)CC[C@]4(C)[C@H]3CC[C@]12C			healthy human volunteers, plasma	dose not given, 0 h, baseline phase, no drug		plasma concentration	305 ± 21 nM
